Experimental data collected from several papers.
A part holds a random share of what one study measured.
Sequence of UniProt P42684 (whole entry, looked up): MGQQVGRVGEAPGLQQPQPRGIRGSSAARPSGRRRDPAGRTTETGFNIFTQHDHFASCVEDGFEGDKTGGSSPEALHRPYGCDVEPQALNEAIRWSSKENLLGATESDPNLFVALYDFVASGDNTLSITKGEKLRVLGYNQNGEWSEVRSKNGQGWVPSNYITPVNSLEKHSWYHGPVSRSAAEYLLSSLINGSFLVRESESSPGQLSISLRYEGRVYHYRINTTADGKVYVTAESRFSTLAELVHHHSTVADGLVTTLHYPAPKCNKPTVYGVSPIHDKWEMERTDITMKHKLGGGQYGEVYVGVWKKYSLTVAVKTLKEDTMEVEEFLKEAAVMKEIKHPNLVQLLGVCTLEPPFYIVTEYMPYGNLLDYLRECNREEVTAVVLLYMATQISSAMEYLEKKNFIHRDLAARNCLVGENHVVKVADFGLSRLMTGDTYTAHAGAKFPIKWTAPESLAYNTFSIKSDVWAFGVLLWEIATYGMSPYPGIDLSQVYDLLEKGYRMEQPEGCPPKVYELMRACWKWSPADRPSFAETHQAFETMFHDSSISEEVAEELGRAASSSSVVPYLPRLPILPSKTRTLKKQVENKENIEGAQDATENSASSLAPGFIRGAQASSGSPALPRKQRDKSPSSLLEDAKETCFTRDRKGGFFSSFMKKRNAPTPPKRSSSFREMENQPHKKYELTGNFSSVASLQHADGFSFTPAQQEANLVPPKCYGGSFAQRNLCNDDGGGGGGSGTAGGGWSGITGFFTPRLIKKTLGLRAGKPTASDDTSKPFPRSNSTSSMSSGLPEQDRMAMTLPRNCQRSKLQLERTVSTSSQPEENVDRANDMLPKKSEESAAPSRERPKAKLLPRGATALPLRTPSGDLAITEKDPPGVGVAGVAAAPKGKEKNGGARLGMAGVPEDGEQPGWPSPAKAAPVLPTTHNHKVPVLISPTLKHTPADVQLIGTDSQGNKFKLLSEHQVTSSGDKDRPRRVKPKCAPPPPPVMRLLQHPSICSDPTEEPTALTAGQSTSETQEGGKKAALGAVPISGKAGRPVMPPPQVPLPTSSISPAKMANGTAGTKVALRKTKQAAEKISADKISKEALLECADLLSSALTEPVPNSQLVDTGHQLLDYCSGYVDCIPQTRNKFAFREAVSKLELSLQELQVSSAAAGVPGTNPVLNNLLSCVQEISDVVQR
Sequence of UniProt Q9NSY1 (whole entry, looked up): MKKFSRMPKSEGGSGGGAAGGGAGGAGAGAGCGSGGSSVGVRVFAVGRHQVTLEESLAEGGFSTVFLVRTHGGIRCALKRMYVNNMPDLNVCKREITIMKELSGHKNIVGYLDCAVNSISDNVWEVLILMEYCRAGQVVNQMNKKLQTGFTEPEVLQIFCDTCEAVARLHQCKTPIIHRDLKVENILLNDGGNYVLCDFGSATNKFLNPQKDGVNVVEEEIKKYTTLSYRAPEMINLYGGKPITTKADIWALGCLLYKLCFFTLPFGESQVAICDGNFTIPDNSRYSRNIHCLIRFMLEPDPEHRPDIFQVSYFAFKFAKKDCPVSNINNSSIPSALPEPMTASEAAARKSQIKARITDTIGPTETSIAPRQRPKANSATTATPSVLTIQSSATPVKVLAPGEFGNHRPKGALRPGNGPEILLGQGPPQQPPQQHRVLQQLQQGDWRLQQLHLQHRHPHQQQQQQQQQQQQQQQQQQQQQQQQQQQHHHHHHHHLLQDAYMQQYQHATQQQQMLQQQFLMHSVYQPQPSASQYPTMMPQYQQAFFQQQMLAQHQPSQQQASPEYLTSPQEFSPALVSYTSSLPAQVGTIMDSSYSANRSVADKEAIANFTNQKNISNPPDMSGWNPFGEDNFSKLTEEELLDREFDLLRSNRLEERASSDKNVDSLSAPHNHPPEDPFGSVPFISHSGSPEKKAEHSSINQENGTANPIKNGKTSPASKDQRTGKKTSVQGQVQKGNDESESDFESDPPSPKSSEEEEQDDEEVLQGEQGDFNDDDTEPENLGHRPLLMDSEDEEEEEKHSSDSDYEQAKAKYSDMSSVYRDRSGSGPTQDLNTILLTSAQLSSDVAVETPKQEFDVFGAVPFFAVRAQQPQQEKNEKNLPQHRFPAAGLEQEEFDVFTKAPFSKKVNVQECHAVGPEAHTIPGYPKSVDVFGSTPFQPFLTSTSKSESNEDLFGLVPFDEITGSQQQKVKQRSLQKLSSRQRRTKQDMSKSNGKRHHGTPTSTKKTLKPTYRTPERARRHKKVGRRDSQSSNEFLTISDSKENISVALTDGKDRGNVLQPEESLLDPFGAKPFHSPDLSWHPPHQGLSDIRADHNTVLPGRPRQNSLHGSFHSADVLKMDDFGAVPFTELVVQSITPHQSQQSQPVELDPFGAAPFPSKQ
Sequence of UniProt P10398 (whole entry, looked up): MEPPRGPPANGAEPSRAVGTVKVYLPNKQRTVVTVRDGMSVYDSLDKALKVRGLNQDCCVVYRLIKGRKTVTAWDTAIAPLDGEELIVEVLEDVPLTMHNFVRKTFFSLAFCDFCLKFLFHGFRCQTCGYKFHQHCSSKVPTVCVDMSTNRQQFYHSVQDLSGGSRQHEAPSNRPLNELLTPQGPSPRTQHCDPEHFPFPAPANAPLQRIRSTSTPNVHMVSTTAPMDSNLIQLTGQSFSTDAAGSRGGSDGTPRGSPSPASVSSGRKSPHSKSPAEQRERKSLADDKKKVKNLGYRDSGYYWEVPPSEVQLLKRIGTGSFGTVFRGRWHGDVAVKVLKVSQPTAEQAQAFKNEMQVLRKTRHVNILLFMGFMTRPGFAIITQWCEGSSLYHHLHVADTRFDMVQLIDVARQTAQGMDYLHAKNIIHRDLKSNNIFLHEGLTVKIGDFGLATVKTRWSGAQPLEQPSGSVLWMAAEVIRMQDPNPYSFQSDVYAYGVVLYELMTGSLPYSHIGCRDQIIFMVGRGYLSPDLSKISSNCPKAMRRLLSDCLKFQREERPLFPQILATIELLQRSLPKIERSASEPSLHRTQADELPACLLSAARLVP
Sequence of UniProt O75716 (whole entry, looked up): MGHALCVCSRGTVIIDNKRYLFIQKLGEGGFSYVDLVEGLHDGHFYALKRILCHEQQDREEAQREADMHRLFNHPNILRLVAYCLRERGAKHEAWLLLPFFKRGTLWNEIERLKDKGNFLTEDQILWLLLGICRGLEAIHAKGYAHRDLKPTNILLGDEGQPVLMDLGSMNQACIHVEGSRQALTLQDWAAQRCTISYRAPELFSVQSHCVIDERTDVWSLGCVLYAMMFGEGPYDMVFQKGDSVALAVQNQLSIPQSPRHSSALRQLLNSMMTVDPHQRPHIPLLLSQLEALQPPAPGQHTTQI
Sequence of UniProt Q96PY6 (whole entry, looked up): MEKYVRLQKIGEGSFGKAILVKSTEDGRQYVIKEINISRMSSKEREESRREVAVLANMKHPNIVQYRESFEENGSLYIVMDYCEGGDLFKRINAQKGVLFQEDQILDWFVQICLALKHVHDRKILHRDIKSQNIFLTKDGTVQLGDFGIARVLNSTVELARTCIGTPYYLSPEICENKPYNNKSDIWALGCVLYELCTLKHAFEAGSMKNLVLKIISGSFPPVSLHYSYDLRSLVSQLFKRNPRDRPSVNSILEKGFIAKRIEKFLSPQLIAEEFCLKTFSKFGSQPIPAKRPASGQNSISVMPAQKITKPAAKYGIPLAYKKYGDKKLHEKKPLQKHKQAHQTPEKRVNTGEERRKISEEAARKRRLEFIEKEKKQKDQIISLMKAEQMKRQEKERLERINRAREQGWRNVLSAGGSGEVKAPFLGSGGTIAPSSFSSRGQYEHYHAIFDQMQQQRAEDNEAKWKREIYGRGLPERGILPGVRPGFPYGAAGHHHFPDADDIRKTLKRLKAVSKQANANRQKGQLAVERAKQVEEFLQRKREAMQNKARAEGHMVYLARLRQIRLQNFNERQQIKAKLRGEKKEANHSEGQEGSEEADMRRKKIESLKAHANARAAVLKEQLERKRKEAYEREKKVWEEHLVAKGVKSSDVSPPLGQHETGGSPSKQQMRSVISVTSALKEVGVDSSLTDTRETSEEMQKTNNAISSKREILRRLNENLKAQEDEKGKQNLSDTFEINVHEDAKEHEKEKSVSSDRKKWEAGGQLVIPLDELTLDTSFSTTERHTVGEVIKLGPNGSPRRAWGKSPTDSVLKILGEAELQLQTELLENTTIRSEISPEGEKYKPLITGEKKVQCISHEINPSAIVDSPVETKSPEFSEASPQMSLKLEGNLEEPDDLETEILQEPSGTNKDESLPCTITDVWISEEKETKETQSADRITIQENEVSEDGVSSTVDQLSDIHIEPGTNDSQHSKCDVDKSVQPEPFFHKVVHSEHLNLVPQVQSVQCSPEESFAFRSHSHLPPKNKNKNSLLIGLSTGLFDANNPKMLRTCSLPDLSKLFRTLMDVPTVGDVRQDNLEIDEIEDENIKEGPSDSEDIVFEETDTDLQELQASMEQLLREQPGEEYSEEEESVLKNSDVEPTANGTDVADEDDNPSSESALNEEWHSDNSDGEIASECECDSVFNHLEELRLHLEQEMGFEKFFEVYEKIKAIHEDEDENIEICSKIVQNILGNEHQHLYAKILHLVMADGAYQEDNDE
Sequence of UniProt Q8WTQ7 (whole entry, looked up): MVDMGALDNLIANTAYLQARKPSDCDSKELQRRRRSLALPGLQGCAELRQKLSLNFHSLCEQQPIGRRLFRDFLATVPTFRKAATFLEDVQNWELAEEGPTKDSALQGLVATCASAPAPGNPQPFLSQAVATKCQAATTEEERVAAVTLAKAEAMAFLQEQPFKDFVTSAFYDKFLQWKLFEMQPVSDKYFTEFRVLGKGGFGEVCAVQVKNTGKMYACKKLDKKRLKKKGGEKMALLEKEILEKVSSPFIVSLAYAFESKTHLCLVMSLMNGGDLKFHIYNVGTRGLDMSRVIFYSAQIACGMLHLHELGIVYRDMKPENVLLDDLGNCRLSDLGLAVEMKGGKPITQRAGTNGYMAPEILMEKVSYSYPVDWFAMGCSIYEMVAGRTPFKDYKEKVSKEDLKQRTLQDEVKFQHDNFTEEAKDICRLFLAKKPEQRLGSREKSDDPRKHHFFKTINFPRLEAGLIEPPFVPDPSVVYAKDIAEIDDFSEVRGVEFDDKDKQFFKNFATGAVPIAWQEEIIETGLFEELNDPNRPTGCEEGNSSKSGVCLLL

Series 1
Compound: O=C(Nc1cccc(Nc2cc(Nc3cccc(C(F)(F)F)c3)ncn2)c1)C1CC1
Read-out: enzyme activity
Mode: inhibitor
Tested at: 0.5 µM
Relative to: control
For ACVR1B (Homo sapiens, UniProt P36896): remaining activity read 101%.
NEK1 (Homo sapiens, UniProt Q96PY6) — remaining activity: 109%.
The remaining activity was 103% (TAOK2 (Homo sapiens, UniProt Q9UL54)).
The remaining activity was 99.2% (NEK6 (Homo sapiens, UniProt Q9HC98)).
TBK1 (Homo sapiens, UniProt Q9UHD2) — remaining activity: 99%.
It gave 103% for remaining activity (FGFR1 (Homo sapiens, UniProt P11362)).
It gave 106% for remaining activity (MST1R (Homo sapiens, UniProt Q04912)).
It gave 95.1% for remaining activity (ARAF (Homo sapiens, UniProt P10398)).
For GRK7 (Homo sapiens, UniProt Q8WTQ7): remaining activity read 99%.
It gave 98.4% for remaining activity (EPHA3 (Homo sapiens, UniProt P29320)).
The remaining activity was 107% (CSNK1G3 (Homo sapiens, UniProt Q9Y6M4)).
It gave 101% for remaining activity (MAP2K2 (Homo sapiens, UniProt P36507)).
For ABL2 (Homo sapiens, UniProt P42684): remaining activity read 100%.

Series 2
SMILES: O=C(Nc1cnn(-c2csc(C(=O)NC3COC3)c2)c1)Nc1ccccc1Cl
Read-out: enzyme activity
Tested at: 5 µM
For EPHB1 (Homo sapiens, UniProt P54762); relative to: untreated control: remaining activity read 99.4%.
DDR2 (Homo sapiens, UniProt Q16832); relative to: untreated control — remaining activity: 98.9%.
It gave 102% for remaining activity (PRKCZ (Homo sapiens, UniProt Q05513); relative to: untreated control).
It gave 98.8% for remaining activity (MAK (Homo sapiens, UniProt P20794); inhibitor).
For EPHB3 (Homo sapiens, UniProt P54753); relative to: untreated control: remaining activity read 84.8%.

Series 3
SMILES: CO[C@H]1CC[C@H](CNc2ccc(S(=O)(=O)NC(=O)c3ccc(N4CCN(CC5=C(c6ccc(Cl)cc6)CC(C)(C)CC5)CC4)cc3Oc3cnc4[nH]ccc4c3)cc2[N+](=O)[O-])CC1
Read-out: cell-free assay
Method: competition with immobilised ligand
Tested at: 1 µM
Receptor-type tyrosine-protein kinase FLT3, autoinhibited (FLT3, Homo sapiens, UniProt P36888) — remaining binding: 100%.
It gave 92% for remaining binding (MET (Homo sapiens, UniProt P08581, Y1235D)).
It gave 71% for remaining binding (DYRK1B (Homo sapiens, UniProt Q9Y463)).
STK16 (Homo sapiens, UniProt O75716) — remaining binding: 79%.
For CSNK1A1L (Homo sapiens, UniProt Q8N752): remaining binding read 85%.
It gave 94% for remaining binding (BMP2K (Homo sapiens, UniProt Q9NSY1)).
The remaining binding was 100% (PIK3CA (Homo sapiens, UniProt P42336, Q546K)).

Series 4
Structure (SMILES): O=C1NC(=O)C(c2cn(-c3ccccc3)nc2-c2ccc(F)cc2)N1 (centres unmarked)
Mode: inhibitor
Tested at: 5 µM
BLK (Homo sapiens, UniProt P51451); cell-based kinome profiling; human cells; relative to: vehicle control — “log2 fold change”: -0.433.
For BMX (Homo sapiens, UniProt P51813); kinase-CDC37 interaction; human cells; relative to: vehicle: “log2 fold change” read -0.421.
STK32A (Homo sapiens, UniProt Q8WU08); kinase activity; cell-based kinome screen; relative to: vehicle — “log2 fold change”: 0.285.
Serine/threonine-protein kinase Sgk1, with CDC37 (SGK1, Homo sapiens, UniProt O00141); kinase activity; cell-based kinome screen; relative to: vehicle — “log2 fold change”: 0.241.
The “log2 fold change” was -0.43 (MYLK2 (Homo sapiens, UniProt Q9H1R3); cell-based kinome screen; human cells; relative to: untreated control).
The “log2 fold change” was -0.007 (Cyclin-dependent kinase 14, with CDC37 (CDK14, Homo sapiens, UniProt O94921); human cells; relative to: vehicle).
The “log2 fold change” was -0.327 (Non-receptor tyrosine-protein kinase TYK2, with CDC37 (TYK2, Homo sapiens, UniProt P29597); kinase activity; cell-based kinome screen; relative to: vehicle).

Some of these lines once more (series 4):
The “log2 fold change” was -0.007 (Cyclin-dependent kinase 14, with CDC37 (CDK14, Homo sapiens, UniProt O94921); human cells; relative to: vehicle).
The “log2 fold change” was -0.327 (Non-receptor tyrosine-protein kinase TYK2, with CDC37 (TYK2, Homo sapiens, UniProt P29597); kinase activity; cell-based kinome screen; relative to: vehicle).
BLK (Homo sapiens, UniProt P51451); cell-based kinome profiling; human cells; relative to: vehicle control — “log2 fold change”: -0.433.
The “log2 fold change” was -0.43 (MYLK2 (Homo sapiens, UniProt Q9H1R3); cell-based kinome screen; human cells; relative to: untreated control).
Serine/threonine-protein kinase Sgk1, with CDC37 (SGK1, Homo sapiens, UniProt O00141); kinase activity; cell-based kinome screen; relative to: vehicle — “log2 fold change”: 0.241.
